Assay results of several laboratories.
Medium: plasma

| SMILES | species | route | dose | notes | measurement | value |
| --- | --- | --- | --- | --- | --- | --- |
| O=c1c(-c2ccc(Cl)c(CN3CCOCC3)c2)coc2cc(O)ccc12 | male Sprague-Dawley rat | oral | 10 mg/kg |  | MRT | 2.48 h |
| CC(C)(C)C(=O)Nc1ccc2[nH]c(CN3CCC(N(CCCN4CCOCC4)CC4OC(n5cnc6c(N)ncnc65)C(O)C4O)CC3)nc2c1 (stereo not shown) | male Sprague-Dawley rat | intraperitoneal | 20 mg/kg |  | MRT(0-t) | 1.42 h |
| CCC(CC)n1c(Cc2ccco2)nc2cc(C(=O)N[C@@H](CC(=O)O)c3ccccc3)ccc21 | male Sprague-Dawley rat | intraperitoneal | 10 mg/kg |  | MRT(0-t) | 2.24 h |
| CC1(C)C(NC(=O)C(=NOC2(C(=O)O)CCC2)c2csc(N)n2)C(=O)N1OS(=O)(=O)O (stereo not shown) | rat | intravenous | 10 mg/kg | single dose | MRT | 0.27 h |
| COc1cc(-c2cc(=O)c3ccc(OCCCn4c(Cl)nc5ccccc54)cc3o2)cc(OC)c1OC | male Sprague-Dawley rat | intravenous | 10 mg/kg |  | MRT(0-inf) | 3.7 h |
| Cc1cc(/C=C/C#N)cc(C)c1Oc1nc(NC2CCN(Cc3ccc(S(C)(=O)=O)cc3)CC2)nc2ncccc12 | Sprague-Dawley rat | intravenous | 2 mg/kg |  | MRT(0-t) | 1.17 h |
| CCCCC(=O)Nc1ccc(-c2ccc3ncn(CCC)c(=O)c3c2)cn1 | male rat | intravenous | 2.5 mg/kg |  | MRT | 4.04 h |
| OC1(C(F)(F)F)CCN(c2nc(Nc3ccnc(C(F)(F)F)c3)nc(-c3cccc(C(F)(F)F)n3)n2)C1 (stereo not shown) | Sprague-Dawley rat | oral | 10 mg/kg |  | MRT(0-inf) | 24.7 h |
| CCC(CC)n1c(Cc2cccs2)nc2cc(C(=O)N[C@@H](CC(=O)O)c3ccccc3)ccc21 | male Sprague-Dawley rat | intraperitoneal | 10 mg/kg |  | MRT(0-inf) | 2.45 h |
| Cc1cc2c(cc1O)C=C1C=CC(=O)C(C)(C)[C@H]1CC2 | male Sprague-Dawley rat | oral | 20 mg/kg |  | MRT(0-inf) | 12.4 h |
